Published values pooled from the literature.
Each numbered part is a random draw from the data of one study; scales do not carry over between parts.

Block 1
Target: Histone acetyltransferase KAT6A, winged helix 1, GST fusion (KAT6A, Homo sapiens, UniProt Q92794, residues 1-85)
Method: protein binding microarray
Molecule type: double-stranded DNA, one strand shown
Matrix: in vitro
Tested at: not given
Notes: 8-mer, flanks averaged, mean of 2 arrays, mostly near background
Baseline: not given
Direction: higher = stronger binding
Target sequence (chain): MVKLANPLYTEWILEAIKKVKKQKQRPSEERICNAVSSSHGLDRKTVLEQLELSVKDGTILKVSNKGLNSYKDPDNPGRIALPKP
Strand | E-score
CTCTACCC | -0.218
GATGTCAA | -0.0035
AGTCTGCA | -0.149

Block 2
Target: Interferon regulatory factor 3, full length, phosphomimetic (IRF3, Homo sapiens, UniProt Q14653, residues 1-427, S386D/S396D/S398D/S402D/T404D/S405D)
Chain of UniProt Q14653 (whole entry, unmodified, looked up): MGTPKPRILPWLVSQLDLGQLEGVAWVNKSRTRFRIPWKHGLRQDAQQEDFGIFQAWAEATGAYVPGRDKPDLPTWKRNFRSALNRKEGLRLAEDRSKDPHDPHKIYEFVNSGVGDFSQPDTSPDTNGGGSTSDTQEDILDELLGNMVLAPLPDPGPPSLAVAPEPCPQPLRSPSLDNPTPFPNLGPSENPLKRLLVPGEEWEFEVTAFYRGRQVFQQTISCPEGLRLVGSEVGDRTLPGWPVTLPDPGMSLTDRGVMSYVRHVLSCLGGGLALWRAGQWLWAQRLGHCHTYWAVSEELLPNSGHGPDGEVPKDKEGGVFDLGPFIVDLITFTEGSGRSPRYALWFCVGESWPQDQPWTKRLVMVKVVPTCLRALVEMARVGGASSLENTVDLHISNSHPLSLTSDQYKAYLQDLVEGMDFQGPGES
Method: protein-binding microarray
Molecule type: double-stranded DNA, one strand shown
Matrix: in vitro
Tested at: 2540 nM top
Notes: 60-bp whole probe
Together with: salmon DNA 0.4 mg/ml
Baseline: random background probes
Direction: higher = stronger binding
Shared flanks, not repeated: GCCTAGCAC … GTCTTGATTCGCTTGACGCTGCTG
Strand | fitted relative affinity [z-score]
GACGATCTCAGACTGTAGACGTGCTAG | 0.29
ATCAGTTTAATATCTAAGATTGTGCTA | 0.837
TTAGGACTGGTTCTCGGTTAGTGCTAG | 0.069
ATAGAACTGAGACTGGATTAGTGCTAG | -0.165
TTAGAACGGAGTATCGATTAGTGCTAG | 0.455
GACGTTTTCGGTTTCGGGACGTGCTAG | 7.35

Block 3
Target: Phosphate system positive regulatory protein PHO4, full length, GST-tagged (PHO4, Saccharomyces cerevisiae, UniProt P07270, residues 1-312)
Method: competition protein-binding microarray
Molecule type: double-stranded DNA, one strand shown
Matrix: in vitro
Tested at: 2 µM
Notes: whole 60-bp probe, lowest competitor level
Together with: Cbf1 competitor, 0.05 µM
Direction: higher = stronger binding
Construct (chain): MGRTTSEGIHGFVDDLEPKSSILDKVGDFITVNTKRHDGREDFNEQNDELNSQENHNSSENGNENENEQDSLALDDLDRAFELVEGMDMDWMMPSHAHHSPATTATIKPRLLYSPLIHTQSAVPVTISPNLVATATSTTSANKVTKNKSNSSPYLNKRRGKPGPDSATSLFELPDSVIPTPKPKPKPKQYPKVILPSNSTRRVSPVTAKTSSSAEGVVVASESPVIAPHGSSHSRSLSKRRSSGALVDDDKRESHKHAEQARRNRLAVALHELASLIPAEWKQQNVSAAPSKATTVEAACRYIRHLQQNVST
Strand | fluorescence intensity
AGGGAACAGTGCCTACACGTGGCTTGCAATCCACTAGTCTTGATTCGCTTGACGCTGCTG | 15000 a.u.
TTGTAGTTGTTGCTGTTGAGGTGGCAGTTGAGAGCTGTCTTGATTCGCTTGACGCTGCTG | 3930 a.u.
CTTTCCCGATCTTGGCTGGTGGGTGTAGCACATTTGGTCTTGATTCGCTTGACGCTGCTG | 4350 a.u.
CCTGCCCTCACCATACAAAACAACCGTTTATAGATAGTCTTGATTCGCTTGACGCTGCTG | 3980 a.u.
CTTTCCCGATCTTGTCACGGCACTTTAGCACATTTGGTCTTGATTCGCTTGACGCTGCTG | 4870 a.u.
ATGAAGTTATTTCCAATCGTGCCAGTGAGATCCTAGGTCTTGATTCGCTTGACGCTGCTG | 6770 a.u.
CATACCCAACCTTGTTTTGTGGGTGAAGATATTTGTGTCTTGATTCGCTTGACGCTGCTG | 4090 a.u.

Single results of other studies
Substance | target | assay | system | setting | how to read | measurement | result
PhoQ, residues 284 288 289 292 302 303 AMDMFI | PhoP, residues 12 14 15 18 19 AGCRL (Escherichia coli, UniProt P23836) | Sort-seq, refers to: YFP reporter | E. coli | PhoQ-PhoP variant library, together with: 10 µM Mg2+ | baseline: high Mg2+ state, higher = stronger signaling | fold induction | 0.634

A few entries again (block 2):
Strand | fitted relative affinity [z-score]
TTAGAACGGAGTATCGATTAGTGCTAG | 0.455
